{"data": "Assay results of several laboratories", "note": "± gives the spread as reported.", "UniProt P07947, sequence (whole entry, looked up)": "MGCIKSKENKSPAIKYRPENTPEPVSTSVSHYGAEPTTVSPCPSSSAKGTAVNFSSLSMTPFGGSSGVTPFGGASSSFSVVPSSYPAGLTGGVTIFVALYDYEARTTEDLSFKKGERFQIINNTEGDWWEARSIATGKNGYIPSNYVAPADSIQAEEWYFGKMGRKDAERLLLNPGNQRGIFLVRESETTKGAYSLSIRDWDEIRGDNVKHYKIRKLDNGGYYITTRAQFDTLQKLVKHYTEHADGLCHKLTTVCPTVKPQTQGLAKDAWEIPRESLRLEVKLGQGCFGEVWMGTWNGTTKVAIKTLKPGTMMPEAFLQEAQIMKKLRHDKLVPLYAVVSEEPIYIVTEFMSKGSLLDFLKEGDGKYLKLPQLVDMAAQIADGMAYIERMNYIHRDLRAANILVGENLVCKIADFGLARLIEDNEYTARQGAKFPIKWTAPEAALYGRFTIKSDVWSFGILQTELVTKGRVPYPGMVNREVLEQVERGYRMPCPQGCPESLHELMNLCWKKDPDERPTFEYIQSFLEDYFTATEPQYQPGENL", "UniProt Q02156, sequence (whole entry, looked up)": "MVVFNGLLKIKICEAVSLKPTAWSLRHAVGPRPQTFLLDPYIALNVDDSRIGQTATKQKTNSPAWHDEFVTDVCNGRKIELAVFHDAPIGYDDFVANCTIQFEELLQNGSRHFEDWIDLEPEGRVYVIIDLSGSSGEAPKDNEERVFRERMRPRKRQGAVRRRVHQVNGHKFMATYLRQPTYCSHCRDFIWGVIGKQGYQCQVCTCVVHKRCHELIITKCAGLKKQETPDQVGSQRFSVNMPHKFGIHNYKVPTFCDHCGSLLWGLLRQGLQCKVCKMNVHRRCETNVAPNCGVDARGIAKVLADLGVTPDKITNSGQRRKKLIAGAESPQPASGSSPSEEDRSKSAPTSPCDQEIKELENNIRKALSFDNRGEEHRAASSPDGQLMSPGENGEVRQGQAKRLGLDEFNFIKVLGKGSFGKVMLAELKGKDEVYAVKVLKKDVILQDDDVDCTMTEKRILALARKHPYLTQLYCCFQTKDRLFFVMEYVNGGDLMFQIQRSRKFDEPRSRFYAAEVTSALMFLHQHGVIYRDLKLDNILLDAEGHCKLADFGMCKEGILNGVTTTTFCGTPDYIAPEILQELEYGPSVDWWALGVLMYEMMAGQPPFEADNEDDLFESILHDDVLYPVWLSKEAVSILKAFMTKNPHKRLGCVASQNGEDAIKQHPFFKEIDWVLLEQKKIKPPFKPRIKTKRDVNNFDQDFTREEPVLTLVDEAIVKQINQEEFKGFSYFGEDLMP", "UniProt Q9Y345, sequence (whole entry, looked up)": "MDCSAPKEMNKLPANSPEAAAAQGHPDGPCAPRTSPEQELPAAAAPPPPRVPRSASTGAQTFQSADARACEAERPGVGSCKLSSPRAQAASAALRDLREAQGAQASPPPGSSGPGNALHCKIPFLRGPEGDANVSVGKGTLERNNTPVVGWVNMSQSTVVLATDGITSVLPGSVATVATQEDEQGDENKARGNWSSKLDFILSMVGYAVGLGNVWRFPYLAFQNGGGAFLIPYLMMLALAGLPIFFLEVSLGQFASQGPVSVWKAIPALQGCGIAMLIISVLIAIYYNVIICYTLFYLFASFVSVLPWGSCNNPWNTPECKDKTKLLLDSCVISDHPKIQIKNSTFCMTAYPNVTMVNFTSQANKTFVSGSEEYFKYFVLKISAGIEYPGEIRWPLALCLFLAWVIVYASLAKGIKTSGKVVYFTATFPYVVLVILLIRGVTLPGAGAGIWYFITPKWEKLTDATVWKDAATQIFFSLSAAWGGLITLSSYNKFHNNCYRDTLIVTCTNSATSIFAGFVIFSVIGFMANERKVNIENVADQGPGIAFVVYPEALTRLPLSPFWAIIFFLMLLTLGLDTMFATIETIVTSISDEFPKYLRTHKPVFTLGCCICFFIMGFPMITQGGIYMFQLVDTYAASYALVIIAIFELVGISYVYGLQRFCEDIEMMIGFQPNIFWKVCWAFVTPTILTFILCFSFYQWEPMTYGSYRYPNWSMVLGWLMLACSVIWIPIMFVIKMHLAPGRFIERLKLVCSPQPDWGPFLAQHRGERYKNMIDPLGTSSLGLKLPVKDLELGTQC", "UniProt P10721, sequence (whole entry, unmodified, looked up)": "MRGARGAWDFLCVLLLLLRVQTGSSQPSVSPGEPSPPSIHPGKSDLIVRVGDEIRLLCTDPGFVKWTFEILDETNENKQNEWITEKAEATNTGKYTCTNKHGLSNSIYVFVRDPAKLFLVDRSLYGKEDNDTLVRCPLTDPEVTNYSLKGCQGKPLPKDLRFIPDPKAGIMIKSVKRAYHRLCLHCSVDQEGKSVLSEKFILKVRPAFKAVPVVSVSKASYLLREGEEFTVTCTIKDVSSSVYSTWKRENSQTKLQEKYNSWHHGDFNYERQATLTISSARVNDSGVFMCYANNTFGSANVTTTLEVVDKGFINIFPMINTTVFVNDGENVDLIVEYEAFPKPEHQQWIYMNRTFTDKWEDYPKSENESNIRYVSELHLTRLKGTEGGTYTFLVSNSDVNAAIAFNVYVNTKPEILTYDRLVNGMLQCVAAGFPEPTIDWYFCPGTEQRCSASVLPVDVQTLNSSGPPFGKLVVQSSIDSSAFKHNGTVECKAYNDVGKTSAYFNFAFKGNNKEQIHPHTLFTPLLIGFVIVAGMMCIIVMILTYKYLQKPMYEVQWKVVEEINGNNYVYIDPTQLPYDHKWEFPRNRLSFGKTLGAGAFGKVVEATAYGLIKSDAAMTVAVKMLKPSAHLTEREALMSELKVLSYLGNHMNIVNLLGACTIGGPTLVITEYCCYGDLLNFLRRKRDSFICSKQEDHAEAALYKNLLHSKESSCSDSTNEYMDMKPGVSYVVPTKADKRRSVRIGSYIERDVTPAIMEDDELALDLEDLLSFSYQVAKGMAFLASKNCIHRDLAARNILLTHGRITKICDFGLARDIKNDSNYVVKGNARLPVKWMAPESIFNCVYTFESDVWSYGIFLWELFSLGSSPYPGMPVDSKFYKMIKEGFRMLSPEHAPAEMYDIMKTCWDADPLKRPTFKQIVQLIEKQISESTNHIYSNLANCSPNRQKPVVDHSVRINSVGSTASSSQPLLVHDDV", "UniProt Q13873, sequence (whole entry, looked up)": "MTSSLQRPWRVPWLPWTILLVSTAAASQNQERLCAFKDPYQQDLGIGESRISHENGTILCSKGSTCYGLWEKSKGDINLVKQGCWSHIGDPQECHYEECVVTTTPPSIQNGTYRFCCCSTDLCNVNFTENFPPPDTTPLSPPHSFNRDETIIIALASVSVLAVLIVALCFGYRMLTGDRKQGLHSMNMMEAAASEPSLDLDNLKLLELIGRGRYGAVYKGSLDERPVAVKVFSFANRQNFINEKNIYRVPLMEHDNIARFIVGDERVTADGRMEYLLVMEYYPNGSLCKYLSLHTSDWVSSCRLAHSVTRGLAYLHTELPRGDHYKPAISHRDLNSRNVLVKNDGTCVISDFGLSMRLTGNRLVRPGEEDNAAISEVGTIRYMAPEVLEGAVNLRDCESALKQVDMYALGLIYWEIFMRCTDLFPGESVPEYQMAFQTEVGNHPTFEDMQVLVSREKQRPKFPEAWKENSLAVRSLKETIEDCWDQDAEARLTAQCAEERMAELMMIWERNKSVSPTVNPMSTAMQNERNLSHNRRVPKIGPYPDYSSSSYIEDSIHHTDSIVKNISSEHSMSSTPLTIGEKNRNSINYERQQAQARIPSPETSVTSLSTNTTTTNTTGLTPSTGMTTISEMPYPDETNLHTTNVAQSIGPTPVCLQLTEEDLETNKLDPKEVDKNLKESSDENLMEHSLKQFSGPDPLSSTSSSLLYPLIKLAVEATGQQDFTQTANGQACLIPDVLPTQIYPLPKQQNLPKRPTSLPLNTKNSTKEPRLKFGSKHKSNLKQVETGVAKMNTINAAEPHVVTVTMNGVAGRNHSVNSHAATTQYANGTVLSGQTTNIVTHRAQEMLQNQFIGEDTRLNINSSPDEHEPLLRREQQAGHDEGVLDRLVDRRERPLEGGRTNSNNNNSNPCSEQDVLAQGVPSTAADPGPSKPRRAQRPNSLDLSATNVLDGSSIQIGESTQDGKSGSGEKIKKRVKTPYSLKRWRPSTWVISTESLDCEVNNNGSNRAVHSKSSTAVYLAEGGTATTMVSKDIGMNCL", "UniProt P51617, sequence (whole entry, looked up)": "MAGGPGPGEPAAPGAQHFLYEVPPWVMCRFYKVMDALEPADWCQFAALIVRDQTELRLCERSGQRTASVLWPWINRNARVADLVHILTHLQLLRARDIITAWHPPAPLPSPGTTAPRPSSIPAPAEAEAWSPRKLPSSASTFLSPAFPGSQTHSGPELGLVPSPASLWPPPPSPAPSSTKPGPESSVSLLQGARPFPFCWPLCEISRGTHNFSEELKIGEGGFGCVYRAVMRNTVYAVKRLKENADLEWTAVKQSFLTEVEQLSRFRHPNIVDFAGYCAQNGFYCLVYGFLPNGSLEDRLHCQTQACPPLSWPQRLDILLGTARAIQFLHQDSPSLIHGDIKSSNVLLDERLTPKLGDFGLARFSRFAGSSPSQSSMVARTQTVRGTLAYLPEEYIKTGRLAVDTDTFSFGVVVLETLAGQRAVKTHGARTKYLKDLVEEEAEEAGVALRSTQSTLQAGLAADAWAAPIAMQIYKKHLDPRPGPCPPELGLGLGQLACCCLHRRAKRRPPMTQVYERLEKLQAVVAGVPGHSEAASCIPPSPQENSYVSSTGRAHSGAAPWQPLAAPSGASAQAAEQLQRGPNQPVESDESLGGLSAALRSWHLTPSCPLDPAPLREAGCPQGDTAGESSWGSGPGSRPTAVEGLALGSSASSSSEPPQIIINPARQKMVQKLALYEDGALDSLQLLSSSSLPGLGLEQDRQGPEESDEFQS"}
{"Structure (SMILES)": "Nc1ccn([C@@H]2O[C@H](COP(=O)(O)OP(=O)(O)OP(=O)(O)O)[C@@H](O)[C@H]2O)c(=O)n1", "test": "binding, equilibrium dialysis LC-MS", "setting": "5 µM, thermostabilized A2AR-BRIL construct", "how to read": "baseline: no-protein control, direction not given", "endpoint": "z-scored log2 fold change", "value": -0.79}
{"Structure (SMILES)": "COc1cc(Nc2ncc3c(n2)-c2ccc(Cl)cc2C(c2c(F)cccc2OC)=NC3)ccc1C(=O)O", "target or system": "PLK3", "test": "kinase activity", "setting": "1 µM", "endpoint": "remaining activity", "value": "111%"}
{"Structure (SMILES)": "C=CC(=O)N1CCC[C@@H](n2nc(-c3ccc(Oc4ccccc4)cc3)c3c(N)ncnc32)C1", "target or system": "Interleukin-1 receptor-associated kinase 1 (IRAK1, Homo sapiens, UniProt P51617)", "setting": "10 µM", "endpoint": "remaining activity", "value": "143%"}
{"Structure (SMILES)": "COc1cc(-c2cncc3c2CN(C)Cc2cc(N4CCNCC4)ccc2-3)cc(OC)c1OC", "target or system": "Bone morphogenetic protein receptor type-2 (BMPR2, Homo sapiens, UniProt Q13873)", "test": "kinase activity", "setting": "1 µM, human enzyme, added: ATP 10 µM", "how to read": "baseline: DMSO control", "endpoint": "remaining activity", "value": "104%"}
{"Structure (SMILES)": "CNCC(=O)O", "target or system": "Sodium- and chloride-dependent glycine transporter 2 (Homo sapiens, UniProt Q9Y345)", "test": "glycine uptake, inhibitor, [3H]glycine uptake", "setting": "100 µM, log concentration -1, added: [3H]glycine", "how to read": "baseline: no inhibitor", "endpoint": "remaining activity", "value": "91.5%"}
{"Structure (SMILES)": "COc1ccc(F)cc1C(=O)NCc1ccc(-c2nn([C@@H](C)C(F)(F)F)c(N)c2C(N)=O)cc1", "target or system": "Tyrosine-protein kinase Yes (YES1, Homo sapiens, UniProt P07947)", "test": "kinase activity, inhibitor, HotSpot radiometric", "setting": "1000 nM, added: ATP at Km", "endpoint": "remaining activity", "value": "38.6 ± 0.5%"}
{"Structure (SMILES)": "O=C(NC1CCC1)c1ccc2nc(-c3cccc(NS(=O)(=O)NCCN4CCCCC4)c3)cn2c1", "target or system": "Mast/stem cell growth factor receptor Kit (KIT, Homo sapiens, UniProt P10721, T670I/V559D)", "test": "enzyme activity", "setting": "10 µM", "endpoint": "remaining activity", "value": "92%"}
{"Structure (SMILES)": "COc1cc(F)ccc1-c1ncnc(Nc2cccc(C[S@](C)(=N)=O)c2)n1", "target or system": "Protein kinase C epsilon type (PRKCE, Homo sapiens, UniProt Q02156)", "test": "kinase activity", "setting": "10 µM, added: 10 µM ATP", "endpoint": "remaining activity", "value": "100%"}
{"Structure (SMILES)": "Nc1ccn([C@H]2C[C@H](O)[C@@H](COP(=O)(O)O)O2)c(=O)n1", "test": "binding, equilibrium dialysis LC-MS", "setting": "5 µM, thermostabilized A2AR-BRIL construct", "how to read": "baseline: no-protein control, direction not given", "endpoint": "z-scored log2 fold change", "value": 0.679}
{"Structure (SMILES)": "O=C(O)c1ccc(Nc2ncc3c(n2)-c2ccc(Cl)cc2C(c2c(F)cccc2F)=NC3)cc1", "target or system": "human CLK3(h)", "test": "kinase activity", "setting": "1 µM", "endpoint": "remaining activity", "value": "81%"}
{"note": "A few entries again:"}
{"Structure (SMILES)": "COc1cc(Nc2ncc3c(n2)-c2ccc(Cl)cc2C(c2c(F)cccc2OC)=NC3)ccc1C(=O)O", "target or system": "PLK3", "test": "kinase activity", "setting": "1 µM", "endpoint": "remaining activity", "value": "111%"}
